Assay results pooled from the literature.
Numbered parts are unrelated; each lists some results of a single study. Positions count from the first letter of the parent shown.

Series 1
Target: CCNE1, cyclin fold, Cln2 fusion (human)
Technique: yeast growth competition, sequencing
Matrix: yeast
Setting: weak parent motif
Relative to: not given
Direction: higher = stronger binding
Parent: RB1 docking peptide (human); PKPLKKLRFDIEG
Substitution	normalised enrichment score
PKPAKKLRFDIEG [L4A]	0.546
PKPLKYLRFDIEG [K6Y]	-0.369
PKPLKKLREDIEG [F9E]	-1.16
PKPLDKLRFDIEG [K5D]	-0.0236
IKPLKKLRFDIEG [P1I]	0.577
PKPLKKHRFDIEG [L7H]	0.199
NKPLKKLRFDIEG [P1N]	-0.307
PKPLKKDRFDIEG [L7D]	-0.741
PKPLKKLRFDGEG [I11G]	0.414
PKPLKKLRFDPEG [I11P]	-0.459
PKPLKLLRFDIEG [K6L]	0.369
PKPLKKLRNDIEG [F9N]	0.936
PKPLKKLRFDDEG [I11D]	-0.242
PKPLKKLWFDIEG [R8W]	-0.215
PKPLKKLRFDHEG [I11H]	0.22
PKPLKKLRFDAEG [I11A]	0.818
PKPLKKLRFEIEG [D10E]	-0.666

Series 2
Target: Ras GTPase-activating protein-binding protein 1, C-terminal RGG region (G3BP1, Homo sapiens, UniProt Q13283)
Chain of UniProt Q13283 (whole entry, looked up): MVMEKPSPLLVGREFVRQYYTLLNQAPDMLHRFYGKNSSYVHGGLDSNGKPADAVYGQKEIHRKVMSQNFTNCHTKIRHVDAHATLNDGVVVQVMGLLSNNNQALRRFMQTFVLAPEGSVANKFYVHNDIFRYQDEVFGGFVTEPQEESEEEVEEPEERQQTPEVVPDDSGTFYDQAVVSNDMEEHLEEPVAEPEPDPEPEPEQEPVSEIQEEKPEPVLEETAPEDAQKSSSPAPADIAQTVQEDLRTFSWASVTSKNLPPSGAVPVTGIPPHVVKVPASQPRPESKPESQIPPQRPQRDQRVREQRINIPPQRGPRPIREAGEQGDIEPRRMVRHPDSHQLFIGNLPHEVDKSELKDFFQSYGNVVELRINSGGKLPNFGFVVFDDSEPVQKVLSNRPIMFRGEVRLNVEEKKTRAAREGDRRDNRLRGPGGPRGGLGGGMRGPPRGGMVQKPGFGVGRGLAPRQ
Technique: RNA Bind-n-Seq
Form: RNA
Matrix: in vitro
Tested at: 1 µM
Setting: whole 134-nt RNA, ends assumed
Added: 150 mM KCl
Relative to: input library
Direction: higher = stronger binding
Constant ends, left off below: GGGAGUUCUACAGUCCGACGAUC … UGGAAUUCUCGGGUGUCAAGG
Oligonucleotide	log2 enrichment
UCAAGUCCUGUGCUACACAUCGUAUGUACCGAAUCGGGAAAGGGAAAGGGAGGGAAAGUAUUAUGUUACGCCGUUCGGAUCUGCACUUCC	1.96
ACCAAAAAGGUGGGCAUCUUUGGGAAGUGGGGCAAGGGGGGGAUAGGGAGGGGGGUAACACUUUGGGAACAGGUGGUCCCAGGUCGUUUC	-1.06
UGGGAGGUGGCUUUUGUUUAUUUUUUUAGCUCAUUUCCAGGGGUGGGAAUUUUUUUUUAAUAUGUGUCAUGAAUAAAGUUGUUUUUGAAA	2.93
CAAGUCCUGUGCUACACAUCGUAUGUACCGAAUCGGGUUUGGGUUUUUGGGAGGGAAAGUAUUAUGUUACGCCGUUCGGAUCUGCACUUC	1.35
UGGGAGGUGGAUUUUGUUUAUUUUUUUAGCUCAUUUCCAGUGGUGGGAAUUUUUUUUUAAUAUGUGUCAUGAAUAAAGUUGUUUUUGAAA	2.52
ACCAUGCAGGUGGGCAUCUUUCGGAAGUGGGGCAAGGGGGGGAUAGGGAGGGGGGUAACACUUUGGGAACAGGUGGUCCCAGGUCGUUUC	-1.26
GUCCUGUGCUACACAUCGUAUGUACCGAAUCGGUUUUUGGGGUUUUUGGGUUUUUGGGAAAGUAUUAUGUUACGCCGUUCGGAUCUGCAC	-0.629
GCAGGAAGUAAAAACAAAUGGAAAUGCUUCGGAUAGUGGCAGGGGUGGGGGUUGCUAAGGAAAGGGUGGGAGGGGAGUGGGUAAAGAGUU	1.49

Series 3
Target: Sal-like protein 4, full length isoform A (SALL4, Homo sapiens, UniProt Q9UJQ4, residues 1-1053)
Chain of UniProt Q9UJQ4 (whole entry, looked up): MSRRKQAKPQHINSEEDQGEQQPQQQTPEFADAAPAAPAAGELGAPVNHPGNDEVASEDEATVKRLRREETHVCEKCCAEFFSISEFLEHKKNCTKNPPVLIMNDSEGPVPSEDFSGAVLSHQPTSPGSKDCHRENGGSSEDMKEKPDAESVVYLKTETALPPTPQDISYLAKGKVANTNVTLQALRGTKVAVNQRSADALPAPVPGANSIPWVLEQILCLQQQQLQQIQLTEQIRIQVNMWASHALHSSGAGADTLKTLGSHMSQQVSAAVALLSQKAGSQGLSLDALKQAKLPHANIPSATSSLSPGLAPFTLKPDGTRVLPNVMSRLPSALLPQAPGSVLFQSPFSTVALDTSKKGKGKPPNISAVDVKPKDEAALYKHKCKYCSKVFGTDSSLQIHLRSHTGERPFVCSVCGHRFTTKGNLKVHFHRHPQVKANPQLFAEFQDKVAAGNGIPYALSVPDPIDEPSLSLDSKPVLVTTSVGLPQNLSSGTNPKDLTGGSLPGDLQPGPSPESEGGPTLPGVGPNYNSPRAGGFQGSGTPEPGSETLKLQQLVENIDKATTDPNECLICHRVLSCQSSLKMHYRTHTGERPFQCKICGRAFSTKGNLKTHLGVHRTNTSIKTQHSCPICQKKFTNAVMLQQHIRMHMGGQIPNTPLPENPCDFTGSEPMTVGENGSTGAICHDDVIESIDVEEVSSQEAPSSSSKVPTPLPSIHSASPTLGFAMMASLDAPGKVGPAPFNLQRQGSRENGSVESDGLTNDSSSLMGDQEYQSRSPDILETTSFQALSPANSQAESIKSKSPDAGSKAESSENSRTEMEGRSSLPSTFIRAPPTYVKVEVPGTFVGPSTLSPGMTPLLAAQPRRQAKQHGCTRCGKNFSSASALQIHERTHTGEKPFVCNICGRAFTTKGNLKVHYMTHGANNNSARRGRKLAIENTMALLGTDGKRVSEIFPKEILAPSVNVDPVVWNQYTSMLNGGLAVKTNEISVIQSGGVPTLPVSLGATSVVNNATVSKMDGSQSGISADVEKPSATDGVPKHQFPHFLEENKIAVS
Technique: universal PBM
Form: double-stranded DNA, one strand shown
Matrix: in vitro
Tested at: 600 nM
Setting: 8-mer, flanks averaged, mean of replicates
Direction: higher = stronger binding
Oligonucleotide	E-score
GCGCCTAA	-0.164
AAGCCGTC	-0.165
AGGCACAG	-0.159
GGTTAAGA	0.0987
GAAACCCA	0.0105
ATGCAGCC	-0.0783
CGTAAATA	0.294
AACACCTC	-0.0839
AAGTTCTC	-0.0669
CCTTTGAA	0.0361
GTCCAAAA	0.145
CTTGTAGC	0.0403
AGTTAATA	0.36

Series 4
Target: Interferon regulatory factor 7, full length, phosphomimetic (IRF7, Homo sapiens, UniProt Q92985, residues 1-503, S101K/S471D/S472D/S475D/S476D/S477D/S483D/S484D/S487D)
Technique: protein-binding microarray
Form: double-stranded DNA, one strand shown
Matrix: in vitro
Tested at: 250 nM
Setting: 60-bp whole probe
Added: salmon DNA 0.4 mg/ml
Relative to: random background probes
Direction: higher = stronger binding
Constant ends, left off below: GCCTAGCAC … GTCTTGATTCGCTTGACGCTGCTG
Construct (chain): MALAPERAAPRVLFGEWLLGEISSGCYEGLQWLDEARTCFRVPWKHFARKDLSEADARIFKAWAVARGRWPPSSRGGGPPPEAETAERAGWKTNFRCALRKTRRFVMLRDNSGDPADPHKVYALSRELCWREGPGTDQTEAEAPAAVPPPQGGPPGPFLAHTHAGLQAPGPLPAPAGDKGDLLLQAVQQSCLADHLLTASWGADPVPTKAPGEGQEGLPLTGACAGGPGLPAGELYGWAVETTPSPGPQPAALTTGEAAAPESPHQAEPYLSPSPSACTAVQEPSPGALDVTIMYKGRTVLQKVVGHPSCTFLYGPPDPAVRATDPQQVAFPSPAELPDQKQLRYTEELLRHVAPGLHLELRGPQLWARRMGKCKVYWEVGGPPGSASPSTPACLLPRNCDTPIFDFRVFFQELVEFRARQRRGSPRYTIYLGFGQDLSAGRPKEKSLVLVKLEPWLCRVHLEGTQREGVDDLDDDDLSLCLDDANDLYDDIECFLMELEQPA
Oligonucleotide	log fluorescence [z-score]
TTAGGTATCGACTATCGGTTCGTGCTA	0.37
AACGAACTGAGTCTCGAGACGTGCTAG	0.41
GTCGGTATCGGTCTCGGGACGTGCTAG	1.29
TTAGGTATCGACAATGGGTTAGTGCTA	-0.0866
TCATGTATATCTTCAGCACTGTGCTAG	-0.0262
GACGATATAAGACTGGAGACGTGCTAG	-0.0448
TTAGTTCTCGGTCTCGGTTAGTGCTAG	2.72
TTAGGACTCGGGACTGGGTTAGTGCTA	0.316
TCAACTTTGCTCTGTGCGACTGTGCTA	-0.357
TTAGGTATGGGTTTCGGTTAGTGCTAG	6.12
GTGGTTTTCATTATTGCTTCGTGCTAG	1.04
TCAAATATATATTCATAACTGTGCTAG	0.451
TTACATATCGGGTTTCGATTAGTGCTA	6.65
TTAGATACCGGGACTGGATTAGTGCTA	-0.0116
GACGGTTTCCTGCTCCTGACGTGCTAG	0.902
GACTGTATCCTACTGCTGACGTGCTAG	0.084
AGAGCAGACCCAGAGTGGCAGTGCTAG	-0.733
TTAGGTATCCTTATCCTTTTGTGCTAG	0.292
TTACGTATCCTTTTCCTTTAGTGCTAG	1.58
TTAGGACTGGCCTTTCGGTTAGTGCTA	-0.28
TCACTCCTCTTTTTTTGACTGTGCTAG	0.719
TTTGGTCTCGGTCTCGGTTAGTGCTAG	2.58
TGTTTTAATTTTCTCTTTGGGTGCTAG	4.36

Series 5
Target: RNA binding protein fox-1 homolog 2, RRM domain, GST-SBP tag (RBFOX2, Homo sapiens, UniProt O43251-10, residues 100-194)
Technique: RNA Bind-n-Seq
Form: RNA
Matrix: in vitro
Tested at: 365 nM
Setting: natural RNA segment, single round, ends assumed
Relative to: no-protein control
Direction: higher = stronger binding
Constant ends, left off below: GGGAGUUCUACAGUCCGACGAUC … UGGAAUUCUCGGGUGCCAA
Construct (chain): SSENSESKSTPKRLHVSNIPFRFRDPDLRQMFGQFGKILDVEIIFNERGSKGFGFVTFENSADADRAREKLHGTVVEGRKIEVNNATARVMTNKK
Oligonucleotide	RBNS enrichment (R)
UCAGGGAGCAUUUCCUUUUCCUGGGAGUUAUGACCGCGAAGUUGUCAUGUGCCGUGCCCUUUUCUGUUUCUGUGUAUCCUAUUGCUGGUGACUCUGUGUGAACUGGCCUU	0.67
UUCAAUUUUUUAUUUUGUAGAUUUCUUUUAAAGUUUGAUUGAUUUCCCCGUUUUUUAAAUCUUUUCUAAUGUUCUGGGAAAGGGGGAGCAUAAACAGCACUUUCAGGCUA	0.667
CUUCAGUUUGGGAGCUGGGUCUGUGGCUUUGAUCAGAAGGUACUUUCAAAAGAGGGCUUUCCAGGGCUCAGCUCCCAACCAGCUGUUAGGACCCCACCCUUUUGCCUUUA	0.306
GGCUCUGAGCGAGGCCUCUUCCUGCUGGGCUCCCAGACUCCUGCAUCCAGGCCCCCACCUUCUCGGCUUCUGGUUUUUCUUUCUUUUUGGUAGAACACAACAUCUACCAU	1.11
ACCUUUUGCUGCCCAUCCUGUUACUUUUGAGUUUCUUUCAUUGUGGUUGUUCUUGGGUUCUUUUGUCUUGUCAGAGCUCUUCUAUAACCUCGCUCUAAUGGCUUAACAGU	4.4
UGGCAGCAUGGGGGCCCUGCUCUUCUGGCCCGUCUCCCGGACAGGUUGAGGAAGCUGCUCCAGAAGCGCCUCGGAAGGGGAGCUCUCAUCAUGGCGCGUGCUGCUGCGGC	2.29
GGUUGAUCCCUCACUUGACUGAUACUUGCAUUCAAGAGAAUCUAGAUUGUGUUGGGGGAGGGACUGACUGUACUCAUGGCUAACUUAAAGUAUUAAAAUAAGGCUGUCCC	0.37
CCACCGAACAGCACAGCUAGUGCCUACUGAGUUCAGAGAGUGCAAGGGGACGAAGGUGGGGAUCCUGAAAUGUUCUUCAACUGGGGAAGACAGAGCUCACCUUCAGGCAG	1.16
UGAUAUGCAGAAGUCACUUUUUUUAUCAGGCUUUAUUCUCCUUACAAAGCCACAGUUUAACUGUCUGCAACAGUUGGUUUAUGUUAAUGAUAGACAAAUACCCAGUGUUU	0.724
CUACACCGACAAACCGCAGACACGCAGGAUCUGCUCAGAGAUUGCAGAAGAGCGUGGCCUCUCUUAUAGGGAAGAUGUAAUUAUGGAUCAAAGAGUGCUAAGAAAAUUGC	0.528
CAGGCGAAGCUGGGUCUUGUGCAUGUUCCCACUGUUUCAUCCUGUCCUCGCCAGGGAUCUGGGUGGGACAGUCACACCCACGGCCUGCUACCCACCAGGUUGUACUUAAC	4.52
GGUCAUGGUGAGCAGCAGGCGCAAGCCAUGCAGCCUGUGGACUGUGCGCAUUGAUAUGUGGAGGCUGUUGAUUUCAACCUUUUUUAAACUUGUGUUUUUUAGUAAAAUUG	1.99

Series 6
Target: PABPC1L2, full length, GST fusion (mouse, UniProt A0ABA7IW68)
Technique: RNAcompete
Form: RNA
Matrix: in vitro
Tested at: 20 nM
Setting: 7-mer, probes averaged, single round
Relative to: mean of 7-mers
Direction: higher = stronger binding
Target sequence (chain): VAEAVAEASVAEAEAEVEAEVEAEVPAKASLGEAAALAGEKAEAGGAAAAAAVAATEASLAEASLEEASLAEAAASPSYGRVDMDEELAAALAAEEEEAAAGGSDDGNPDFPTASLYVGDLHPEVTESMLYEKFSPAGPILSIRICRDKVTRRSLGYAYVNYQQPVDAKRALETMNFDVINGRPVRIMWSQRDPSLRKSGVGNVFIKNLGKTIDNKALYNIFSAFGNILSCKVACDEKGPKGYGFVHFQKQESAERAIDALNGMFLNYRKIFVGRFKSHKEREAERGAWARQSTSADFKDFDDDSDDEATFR
Oligonucleotide	7-mer Z-score
UACUGAG	-0.126
GGGCAUC	0.407
ACGAUUG	-0.05
UCCCAAG	-0.193
CGUCCCU	-0.47
UGCACAU	-0.284
GUACGAU	-0.222
UGGUAUC	0.0315
CUGGGCU	-0.151
CUUUGCC	-0.514
GGCGAAC	0.3
CAUUCAU	-0.233
UCGUCGU	-0.512
GUUGGUU	-0.356
UUCUGCA	-0.278
CGUGCUC	-0.291

Series 7
Target: Histone acetyltransferase KAT6A, winged helix 1, GST fusion (KAT6A, Homo sapiens, UniProt Q92794, residues 1-85)
Technique: protein binding microarray
Form: double-stranded DNA, one strand shown
Matrix: in vitro
Tested at: not given
Setting: 8-mer, flanks averaged, mean of 2 arrays, mostly near background
Relative to: not given
Direction: higher = stronger binding
Residues (chain): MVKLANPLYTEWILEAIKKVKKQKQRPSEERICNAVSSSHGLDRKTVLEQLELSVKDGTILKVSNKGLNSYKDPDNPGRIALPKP
Oligonucleotide	E-score
CGCATCGA	0.233
ACAGTCCA	-0.243
ATACACGG	0.152
AGGTAAAT	-0.25
GAGTTTTA	-0.117
AAAGAGTG	-0.118
GAAAGCTA	-0.0871
GTAACAGA	-0.0224
GAATTTAA	-0.171
CGGACTAC	0.201
CTCCTTTA	-0.0159
CCCAACGG	0.0391
AAGCCGGG	0.196
ATCCACGG	0.284
CCCAGTCG	-0.0161
TCCGTCCA	0.0622
AAGCGACG	0.313
CTAGCACC	-0.114
ATAATCAA	0.0524
GGGGCCAC	-0.0599
GATGGGGC	-0.0279
ATGCGTTC	0.0847
CCCCATAG	-0.249
CTCAGTGA	-0.242
GATTGCAC	-0.0149

Some of these lines once more (series 4):
Oligonucleotide	log fluorescence [z-score]
TTAGGTATCCTTATCCTTTTGTGCTAG	0.292
TTACATATCGGGTTTCGATTAGTGCTA	6.65
GACGATATAAGACTGGAGACGTGCTAG	-0.0448
GTCGGTATCGGTCTCGGGACGTGCTAG	1.29
AGAGCAGACCCAGAGTGGCAGTGCTAG	-0.733
TTAGGTATCGACTATCGGTTCGTGCTA	0.37
TCAAATATATATTCATAACTGTGCTAG	0.451
TCAACTTTGCTCTGTGCGACTGTGCTA	-0.357
TTAGGTATGGGTTTCGGTTAGTGCTAG	6.12
GACGGTTTCCTGCTCCTGACGTGCTAG	0.902
TCATGTATATCTTCAGCACTGTGCTAG	-0.0262
GACTGTATCCTACTGCTGACGTGCTAG	0.084
GTGGTTTTCATTATTGCTTCGTGCTAG	1.04
